Experimental data gathered from unrelated publications.
Lines come from different studies, so protocols differ. Numbers after ± are the reported error.

Substance | tested on | test | test system | setting | scale | measurement | result
CC(C)C[C@H](NC(=O)[C@H](Cc1ccccc1)NC(=O)c1cnccn1)B(O)O | RPMI-8226 | cytotoxicity, WST-1 |  | 24 h |  | EC50 | ~0.0025 µM
C=C1CC[C@H](O)C/C1=C/C=C1\CCC[C@]2(C)[C@@H](C(=O)CO)CC[C@@H]12 | SK-MEL-188 melanoma, pigmented | cell growth, inhibitor, MTT |  | 48 h |  | EC50 | 0.0025 µM
CC1(C)CC(=O)C2=C(C1)Nc1cc(C(F)(F)F)ccc1NC2c1ccc(N2CCCC2)cc1 (stereo not shown) | H4 | cytoprotection |  | together with: thapsigargin 7.5 µM |  | EC50 | < 20 µM
CCC#CC[C@H](C)[C@H](O)/C=C/[C@H]1CC(F)(F)C(=O)N1CCCCCCC(=O)O | bone marrow cells, old female rats | alkaline phosphatase activity, activator |  | 9 days, single treatment at plating |  | EC50 | 0.00161 ± 0.00036 µM
CC1(C)CC(=O)C2=C(C1)Nc1cc(Cl)ccc1NC2c1ccc(N2CCCC2)cc1 (stereo not shown) | H4 | cytoprotection |  | together with: thapsigargin 7.5 µM |  | EC50 | 20.6 ± 0.66 µM
COc1ccc2cc(-c3cc4ccccc4[nH]3)ccc2c1 | HEK293 | cell growth or viability |  | 50 µM |  | viability | 93.5%
CCCCN(CCCC)c1ccc(C2Nc3ccc(Cl)cc3NC3=C2C(=O)CC(C)(C)C3)cc1 (stereo not shown) | H4 | cytoprotection |  | together with: thapsigargin 7.5 µM |  | EC50 | 22.2 ± 1.55 µM
CC(C)[C@H](NC(=O)[C@@H]1CCCN1C(=O)[C@H](CCCNC(=N)N)NC(=O)[C@H](CS)NC(=O)[C@H](Cc1c[nH]c2ccccc12)NC(=O)[C@H](CCCNC(=N)N)NC(=O)[C@@H](Cc1ccccc1)NC(=O)[C@H](Cc1c[nH]cn1)NC(=O)[C@H](CCC(=O)O)NC(=O)[C@H](CS)NC(=O)[C@H](CS)NC(=O)[C@H](CCCCN)NC(=O)[C@@H]1CC(=O)N[C@@H](CCCNC(=N)N)C(=O)N[C@@H](C)C(=O)N[C@@H](CC(=O)O)C(=O)N[C@H](Cc2ccc(O)cc2)C(=O)N1)C(N)=O [technetium-99m labelled] |  |  | C57 mice, blood | intravenous, 0.037 MBq, 4 h |  | tissue uptake | 0.2 ± 0.09 %ID/g
insulin human | rat primary hepatocytes | glycogen accumulation, agonist |  | 0.1% HSA |  | EC50 | 0.00017 µM
COc1ccccc1C(=O)Nc1ccc(N2CCN(c3cccc(C)c3C)CC2)cc1C(=O)O | CHO-K1 | cell growth rescue |  | rescue relative to DFMO alone, together with: DFMO at IC50 plus 1 µM spermidine |  | EC50 | ~20 µM
COc1cc([C@@H]2c3cc4c(cc3[C@@H](O[C@@H]3O[C@@H]5CO[C@@H](c6cccs6)O[C@H]5[C@H](O)[C@H]3O)[C@H]3COC(=O)[C@H]23)OCO4)cc(OC)c1O | BJ fibroblasts | cell proliferation |  |  |  | EC50 | 29 µM
CC1(C)CC(=O)C2=C(C1)Nc1cc(-c3ccccc3)ccc1NC2c1ccc(N2CCCC2)cc1 (stereo not shown) | H4 | cytoprotection |  | together with: thapsigargin 7.5 µM |  | EC50 | 6.85 ± 0.98 µM
O=P(O)(O)O[C@@H]1[C@H](O)[C@H](O)[C@@H](OP(=O)(O)O)[C@H](OP(=O)(O)O)[C@H]1O | chicken DT40 wild type | CRAC current, agonist, whole-cell patch clamp |  | intracellular application, together with: cytosolic Ca2+ 150 nM |  | EC50 | 0.67 µM
CCN(c1ccc(OC)cc1)c1ncnc2occ(C)c12 | A10 rat | microtubule depolymerization, immunofluorescence |  | 18 h |  | EC50 | 0.053 µM
CN(C)c1ccc(-c2cc3ccccc3[nH]2)cc1 | HEK293 | cell growth or viability |  | 50 µM |  | viability | 74.6%
CC1(C)CC(=O)C2=C(C1)Nc1cc(Cl)ccc1NC2c1ccc(N2CCCCC2)cc1 (stereo not shown) | H4 | cytoprotection |  | together with: thapsigargin 7.5 µM |  | EC50 | 27.5 ± 3.32 µM
insulin icodec | rat primary hepatocytes | glycogen accumulation, agonist |  | 0.1% HSA |  | EC50 | 0.069 µM
O=C(N[C@@H]1CCCc2c1[nH]c1ccc(Cl)cc21)c1ccccn1 | Vero | cell growth, MTS |  | 72 h |  | EC50 | 0.02 ± 0.005 µM
C#C[C@]1(COP(=O)(O)OP(=O)(O)OP(=O)(O)O)O[C@@H](n2cnc3c(N)nc(F)nc32)C[C@@H]1O | human PBMC tumour model |  | host not given, plasma | oral, 30 mg, single dose, fed |  | half-life | 145 h
Cc1ccc(NC(=O)c2ccc(CN3CCN(C)CC3)cc2)cc1Nc1nccc(-c2cncc(-c3oncc3C)c2)n1 |  |  | mild-to-moderate Parkinson's disease patients | oral, 50 mg once daily, pre-dose baseline, on anti-Parkinson medication | direction not given | PGI-S score | 2.2 ± 0.8
COc1ccc(C2=N[C@@H](c3ccc(Cl)cc3)[C@@H](c3ccc(Cl)cc3)N2C(=O)N2CCNC(=O)C2)c(OC(C)C)c1 | human PBMC | T cell expansion, resazurin |  | 7 days, together with: concanavalin A 2 µg/mL |  | EC50 | 1.13 µM
Cc1ccc(C)c(NC(=O)c2nnn(-c3cccc(Cl)c3C)c2C)c1 | INS1 | cell viability, protective, CellTiter-Glo |  | 72 h, together with: tunicamycin 0.15 µg/mL |  | EC50 | 6 ± 1 µM

Some of these lines once more:
Substance | tested on | test | test system | setting | scale | measurement | result
C#C[C@]1(COP(=O)(O)OP(=O)(O)OP(=O)(O)O)O[C@@H](n2cnc3c(N)nc(F)nc32)C[C@@H]1O | human PBMC tumour model |  | host not given, plasma | oral, 30 mg, single dose, fed |  | half-life | 145 h
CC1(C)CC(=O)C2=C(C1)Nc1cc(-c3ccccc3)ccc1NC2c1ccc(N2CCCC2)cc1 (stereo not shown) | H4 | cytoprotection |  | together with: thapsigargin 7.5 µM |  | EC50 | 6.85 ± 0.98 µM
